Results of several laboratories.
A part holds a random share of what one study measured.

Block 1
Target: Interferon regulatory factor 5, full length, phosphomimetic (IRF5, Homo sapiens, UniProt Q13568-2, residues 1-514, K96S/S451D/S453D/S456D/S462D)
Technique: protein-binding microarray
Form: double-stranded DNA, one strand shown
Sample: in vitro
Concentration: 250 nM
Notes: 60-bp whole probe
With: salmon DNA 0.4 mg/ml
Relative to: random background probes
Reading: higher = stronger binding
For `GCCTAGCACTCCCTTTTCATGCTCTTATAGTGCTAGGTCTTGATTCGCTTGACGCTGCTG`, the log fluorescence was 1.08 z-score.
`GCCTAGCACTAAGAACTGGGGTTTCGATTAGTGCTAGTCTTGATTCGCTTGACGCTGCTG` gave a log fluorescence of 6.13 z-score.
`GCCTAGCACGACGGTTCCGGTTTCGCGACGTGCTAGGTCTTGATTCGCTTGACGCTGCTG` gave a log fluorescence of 1.73 z-score.
The log fluorescence of `GCCTAGCACGACGAACTGAATCTCGAGACGTGCTAGGTCTTGATTCGCTTGACGCTGCTG` is reported as 0.0613 z-score.

Block 2
Target: Histone acetyltransferase KAT6A, winged helix 2, GST fusion (KAT6A, Homo sapiens, UniProt Q92794, residues 85-181)
Technique: protein binding microarray
Form: double-stranded DNA, one strand shown
Sample: in vitro
Concentration: not given
Notes: 8-mer, flanks averaged, mean of 2 arrays, mostly near background
Relative to: not given
Reading: higher = stronger binding
Construct (chain): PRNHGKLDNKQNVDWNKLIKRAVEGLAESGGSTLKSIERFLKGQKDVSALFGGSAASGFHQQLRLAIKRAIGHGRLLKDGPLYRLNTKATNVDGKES
The E-score of `ATAGGTGA` is reported as -0.224.
`CCGCGCGG` has an E-score of 0.348.
For `GACTTAAA`, the E-score was -0.024.

Block 3
Target: RNA binding protein fox-1 homolog 2, RRM domain, GST-SBP tag (RBFOX2, Homo sapiens, UniProt O43251-10, residues 100-194)
Technique: RNA Bind-n-Seq
Form: RNA
Sample: in vitro
Concentration: 365 nM
Notes: natural RNA segment, single round, ends assumed
Relative to: no-protein control
Reading: higher = stronger binding
Target sequence (chain): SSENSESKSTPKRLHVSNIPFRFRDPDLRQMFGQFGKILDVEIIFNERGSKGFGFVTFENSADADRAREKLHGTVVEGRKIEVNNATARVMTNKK
Under “RBNS enrichment (R)”, `GGGAGUUCUACAGUCCGACGAUCCUUAAUUGAAAUCUAAGCUUUUUACCGCUUUCCCCUCCUUGCCCUCUCUCCUCCCUUCUGCCCUCCUUGCAUUGUGAUGAUCUAGUGGGCAUGUCUGUCACCUGGACAAUUGGAAUUCUCGGGUGCCAA` is recorded as 0.785.
`GGGAGUUCUACAGUCCGACGAUCGCUUGAGACUGGUGUCUGUUUCAUCGUCCCAGGACACGGCAAAUGAAGUCAGAACAGAAGGAGGACGCUGGAGGGCCUUGCUGGCUACCGCUAUCUAAAGGGAACCCCCAUGGAAUUCUCGGGUGCCAA`: “RBNS enrichment (R)” 0.542.
Under “RBNS enrichment (R)”, `GGGAGUUCUACAGUCCGACGAUCUCAUGUUAUCCAAGCAGUGGGUUAACUAAAGGGCCCAUUCAUCCUUUAUGCCCGGUACACACAACAUAUGUUCAGUUGUUCUUAACUACUUUUGUCAUUUGUUUUUUGGAUGGAAUUCUCGGGUGCCAA` is recorded as 0.267.
Under “RBNS enrichment (R)”, `GGGAGUUCUACAGUCCGACGAUCAAUUAUUUUCUAAUCCCUUUCUGAGUACUCUGGGGCCCUGCAUUUAUGAGGCACCUACCUUCAUUUUGCUAACGCUUAUUCUGAAUAAAAGUUUUUGAUUCCUUAAAGACUGGAAUUCUCGGGUGCCAA` is recorded as 0.344.

Further values, each from its own experiment
With `PhoQ, residues 284 288 289 292 302 303 TTCLQL` the fold induction was 0.81 (PhoP, residues 12 14 15 18 19 DLLYY (Escherichia coli, UniProt P23836); Sort-seq, refers to: YFP reporter; E. coli; PhoQ-PhoP variant library, with: 10 µM Mg2+; relative to: high Mg2+ state, higher = stronger signaling).

Repeated from above (block 2):
`CCGCGCGG` has an E-score of 0.348.
The E-score of `ATAGGTGA` is reported as -0.224.
